Assay results collected from several papers.
Parts stem from different laboratories: compare values within a part only. Changes are numbered by the printed parent chain.

Set 1
Target: Cyclic AMP-dependent transcription factor ATF-1 (ATF1, Homo sapiens, UniProt P18846, residues 1-271, full length assumed)
Technique: protein-binding microarray
Form: double-stranded DNA, one strand shown
Medium: in vitro
Concentration: not given
Notes: k-mer, scored over probes, only values ≥0.25
Reading: higher = stronger binding
Residues (chain): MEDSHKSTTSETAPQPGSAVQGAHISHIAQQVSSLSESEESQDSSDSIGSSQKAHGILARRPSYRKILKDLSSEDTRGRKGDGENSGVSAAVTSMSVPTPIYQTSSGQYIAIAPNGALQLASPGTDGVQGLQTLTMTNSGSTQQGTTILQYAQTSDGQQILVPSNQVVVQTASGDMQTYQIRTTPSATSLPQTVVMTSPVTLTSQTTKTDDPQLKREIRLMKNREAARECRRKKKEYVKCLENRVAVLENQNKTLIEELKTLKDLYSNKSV
For `CACCAAC`, the E-score was 0.262.
With `GAACGTA` the E-score was 0.296.
For `TCACGGA`, the E-score was 0.259.
With `CTGTCAC` the E-score was 0.277.
`ACAAGTG` gave an E-score of 0.253.

Set 2
Target: Interferon regulatory factor 3, full length, phosphomimetic (IRF3, Homo sapiens, UniProt Q14653, residues 1-427, S386D/S396D/S398D/S402D/T404D/S405D)
Technique: protein-binding microarray
Form: double-stranded DNA, one strand shown
Medium: in vitro
Concentration: 2540 nM top
Notes: 60-bp whole probe
With: salmon DNA 0.4 mg/ml
Reference: random background probes
Reading: higher = stronger binding
Constant ends, left off below: GCCTAGCAC … GTCTTGATTCGCTTGACGCTGCTG
Construct (chain): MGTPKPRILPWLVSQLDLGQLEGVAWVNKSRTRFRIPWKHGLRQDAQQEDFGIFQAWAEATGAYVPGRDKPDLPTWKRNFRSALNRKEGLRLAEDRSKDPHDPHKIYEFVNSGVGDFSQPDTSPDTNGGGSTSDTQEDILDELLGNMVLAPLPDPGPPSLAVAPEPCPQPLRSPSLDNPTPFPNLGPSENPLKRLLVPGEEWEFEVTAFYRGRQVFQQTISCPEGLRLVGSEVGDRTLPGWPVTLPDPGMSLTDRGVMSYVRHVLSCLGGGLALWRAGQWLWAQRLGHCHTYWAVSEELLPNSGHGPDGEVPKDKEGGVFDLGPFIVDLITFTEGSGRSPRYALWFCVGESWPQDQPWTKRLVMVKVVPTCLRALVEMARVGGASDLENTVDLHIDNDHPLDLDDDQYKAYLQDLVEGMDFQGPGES
Under “fitted relative affinity”, `TTAGGTTTCGGGGATCGGTTAGTGCTA` is recorded as 2.32 z-score.
For `TCATGAATGCCCTCTAACACTGTGCTA`, “fitted relative affinity” read -0.532 z-score.
`TTAGGACTGGGACTGGATTAGTGCTAG` — result for “fitted relative affinity”: -0.711 z-score.
`GACCGTATCCTACTGCTGACGTGCTAG`: “fitted relative affinity” 2.71 z-score.
Under “fitted relative affinity”, `TTAGGTTTCGGTTTAGGTTAGTGCTAG` is recorded as 9.39 z-score.
For `TGCTTCTAACAGAGGAGGTTGTGCTAG`, “fitted relative affinity” read -0.281 z-score.

Set 3
Target: CCND2, cyclin fold, Cln2 fusion (human)
Technique: yeast growth competition, sequencing
Medium: yeast
Notes: weak parent motif
Reference: not given
Reading: higher = stronger binding
Parent: CDKN1B docking peptide (human); PSACRNLFGPVDH
`S2I`: “normalised enrichment score” 0.0955.
Under “normalised enrichment score”, `S2V` is recorded as 0.353.
Under “normalised enrichment score”, `V11S` is recorded as 0.0567.
`V11D` — result for “normalised enrichment score”: 0.0527.
`S2P`: “normalised enrichment score” 0.135.

Other studies, line by line
`PhoQ, residues 284 288 289 292 302 303 AQGLTV` has a fold induction of 0.693 (PhoP, residues 12 14 15 18 19 VHSCL (Escherichia coli, UniProt P23836); Sort-seq, item: YFP reporter; E. coli; PhoQ-PhoP variant library, with: 10 µM Mg2+; reference: high Mg2+ state, higher = stronger signaling).

Some of these lines once more (set 1):
For `TCACGGA`, the E-score was 0.259.
With `CTGTCAC` the E-score was 0.277.
